Published values of several laboratories.
Protocols differ between the studies behind these lines.
mrcB: Penicillin-binding protein 1B (mrcB, Escherichia coli K-12, UniProt P02919)
Sequence of UniProt P02919 (whole entry, looked up): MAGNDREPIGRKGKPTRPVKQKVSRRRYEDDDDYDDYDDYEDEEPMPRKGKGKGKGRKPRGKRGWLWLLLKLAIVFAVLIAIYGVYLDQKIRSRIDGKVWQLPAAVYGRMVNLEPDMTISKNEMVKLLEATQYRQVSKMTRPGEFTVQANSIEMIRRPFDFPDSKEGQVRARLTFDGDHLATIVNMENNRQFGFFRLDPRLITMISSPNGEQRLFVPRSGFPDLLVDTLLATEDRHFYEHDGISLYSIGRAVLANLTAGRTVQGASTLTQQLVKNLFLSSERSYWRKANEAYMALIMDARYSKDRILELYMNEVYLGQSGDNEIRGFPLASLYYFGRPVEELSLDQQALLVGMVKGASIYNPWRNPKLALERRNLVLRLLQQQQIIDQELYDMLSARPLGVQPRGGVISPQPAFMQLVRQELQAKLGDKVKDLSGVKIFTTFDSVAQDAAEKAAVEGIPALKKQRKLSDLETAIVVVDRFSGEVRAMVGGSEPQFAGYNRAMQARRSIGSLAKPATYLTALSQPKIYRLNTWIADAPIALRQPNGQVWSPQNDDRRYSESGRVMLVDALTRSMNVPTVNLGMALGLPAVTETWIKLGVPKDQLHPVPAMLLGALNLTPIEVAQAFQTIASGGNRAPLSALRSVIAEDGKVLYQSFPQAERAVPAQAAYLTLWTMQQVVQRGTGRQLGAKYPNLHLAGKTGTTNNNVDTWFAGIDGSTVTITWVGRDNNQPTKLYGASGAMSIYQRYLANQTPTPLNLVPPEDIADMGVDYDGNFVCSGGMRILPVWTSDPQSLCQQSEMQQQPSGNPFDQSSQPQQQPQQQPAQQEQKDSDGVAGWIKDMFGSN
ACE: Angiotensin-converting enzyme (ACE, Homo sapiens, UniProt P12821)
Sequence of UniProt P12821 (whole entry, looked up): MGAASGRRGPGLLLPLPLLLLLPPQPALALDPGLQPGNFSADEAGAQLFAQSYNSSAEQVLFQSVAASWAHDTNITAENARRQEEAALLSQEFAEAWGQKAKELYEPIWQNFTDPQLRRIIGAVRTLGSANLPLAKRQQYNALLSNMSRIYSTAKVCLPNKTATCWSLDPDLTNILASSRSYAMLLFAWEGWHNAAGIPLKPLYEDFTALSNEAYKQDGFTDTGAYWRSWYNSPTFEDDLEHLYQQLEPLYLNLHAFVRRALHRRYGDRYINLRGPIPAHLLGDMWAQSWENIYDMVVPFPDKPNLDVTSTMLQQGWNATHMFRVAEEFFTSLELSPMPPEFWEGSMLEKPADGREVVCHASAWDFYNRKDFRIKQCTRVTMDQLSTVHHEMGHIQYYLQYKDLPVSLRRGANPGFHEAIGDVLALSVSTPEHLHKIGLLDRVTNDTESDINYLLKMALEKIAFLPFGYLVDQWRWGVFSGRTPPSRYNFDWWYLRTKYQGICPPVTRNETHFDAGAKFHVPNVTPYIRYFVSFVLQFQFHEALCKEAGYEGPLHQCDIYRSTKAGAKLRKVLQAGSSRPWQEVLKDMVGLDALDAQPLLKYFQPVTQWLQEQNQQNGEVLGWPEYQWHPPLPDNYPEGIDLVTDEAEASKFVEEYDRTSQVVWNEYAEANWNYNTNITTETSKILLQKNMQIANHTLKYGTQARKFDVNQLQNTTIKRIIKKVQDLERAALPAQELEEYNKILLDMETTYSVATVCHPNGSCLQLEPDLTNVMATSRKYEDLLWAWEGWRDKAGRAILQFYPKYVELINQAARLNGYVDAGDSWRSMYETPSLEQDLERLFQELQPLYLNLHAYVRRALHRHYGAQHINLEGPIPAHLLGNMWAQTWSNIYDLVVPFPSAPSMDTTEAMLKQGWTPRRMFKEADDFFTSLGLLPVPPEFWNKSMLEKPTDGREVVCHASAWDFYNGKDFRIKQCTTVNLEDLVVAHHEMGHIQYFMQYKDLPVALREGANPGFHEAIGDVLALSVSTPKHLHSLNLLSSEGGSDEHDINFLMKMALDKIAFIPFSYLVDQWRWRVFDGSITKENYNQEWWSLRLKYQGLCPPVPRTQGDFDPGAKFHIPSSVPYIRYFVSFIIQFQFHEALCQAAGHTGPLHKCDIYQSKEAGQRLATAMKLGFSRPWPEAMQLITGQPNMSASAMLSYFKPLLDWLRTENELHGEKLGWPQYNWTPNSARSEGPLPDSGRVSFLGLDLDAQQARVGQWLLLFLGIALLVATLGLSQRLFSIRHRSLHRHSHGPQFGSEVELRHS
Adhesin FmlH lectin domain: Adhesin FmlH, lectin domain (Escherichia coli, UniProt Q1RBS0)
CDK6 with cyclin D3: Cyclin-dependent kinase 6, with cyclin D3 (CDK6, Homo sapiens, UniProt Q00534)
Sequence of UniProt Q00534 (whole entry, looked up): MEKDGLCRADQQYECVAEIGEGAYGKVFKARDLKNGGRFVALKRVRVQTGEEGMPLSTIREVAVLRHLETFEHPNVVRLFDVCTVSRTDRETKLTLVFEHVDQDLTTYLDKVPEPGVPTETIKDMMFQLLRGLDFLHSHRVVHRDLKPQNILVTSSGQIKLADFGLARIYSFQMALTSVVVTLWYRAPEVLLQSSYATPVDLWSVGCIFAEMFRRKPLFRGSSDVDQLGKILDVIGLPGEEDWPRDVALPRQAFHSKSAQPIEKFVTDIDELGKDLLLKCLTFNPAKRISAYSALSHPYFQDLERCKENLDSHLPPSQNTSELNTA
Sequence of UniProt O75116 (whole entry, looked up): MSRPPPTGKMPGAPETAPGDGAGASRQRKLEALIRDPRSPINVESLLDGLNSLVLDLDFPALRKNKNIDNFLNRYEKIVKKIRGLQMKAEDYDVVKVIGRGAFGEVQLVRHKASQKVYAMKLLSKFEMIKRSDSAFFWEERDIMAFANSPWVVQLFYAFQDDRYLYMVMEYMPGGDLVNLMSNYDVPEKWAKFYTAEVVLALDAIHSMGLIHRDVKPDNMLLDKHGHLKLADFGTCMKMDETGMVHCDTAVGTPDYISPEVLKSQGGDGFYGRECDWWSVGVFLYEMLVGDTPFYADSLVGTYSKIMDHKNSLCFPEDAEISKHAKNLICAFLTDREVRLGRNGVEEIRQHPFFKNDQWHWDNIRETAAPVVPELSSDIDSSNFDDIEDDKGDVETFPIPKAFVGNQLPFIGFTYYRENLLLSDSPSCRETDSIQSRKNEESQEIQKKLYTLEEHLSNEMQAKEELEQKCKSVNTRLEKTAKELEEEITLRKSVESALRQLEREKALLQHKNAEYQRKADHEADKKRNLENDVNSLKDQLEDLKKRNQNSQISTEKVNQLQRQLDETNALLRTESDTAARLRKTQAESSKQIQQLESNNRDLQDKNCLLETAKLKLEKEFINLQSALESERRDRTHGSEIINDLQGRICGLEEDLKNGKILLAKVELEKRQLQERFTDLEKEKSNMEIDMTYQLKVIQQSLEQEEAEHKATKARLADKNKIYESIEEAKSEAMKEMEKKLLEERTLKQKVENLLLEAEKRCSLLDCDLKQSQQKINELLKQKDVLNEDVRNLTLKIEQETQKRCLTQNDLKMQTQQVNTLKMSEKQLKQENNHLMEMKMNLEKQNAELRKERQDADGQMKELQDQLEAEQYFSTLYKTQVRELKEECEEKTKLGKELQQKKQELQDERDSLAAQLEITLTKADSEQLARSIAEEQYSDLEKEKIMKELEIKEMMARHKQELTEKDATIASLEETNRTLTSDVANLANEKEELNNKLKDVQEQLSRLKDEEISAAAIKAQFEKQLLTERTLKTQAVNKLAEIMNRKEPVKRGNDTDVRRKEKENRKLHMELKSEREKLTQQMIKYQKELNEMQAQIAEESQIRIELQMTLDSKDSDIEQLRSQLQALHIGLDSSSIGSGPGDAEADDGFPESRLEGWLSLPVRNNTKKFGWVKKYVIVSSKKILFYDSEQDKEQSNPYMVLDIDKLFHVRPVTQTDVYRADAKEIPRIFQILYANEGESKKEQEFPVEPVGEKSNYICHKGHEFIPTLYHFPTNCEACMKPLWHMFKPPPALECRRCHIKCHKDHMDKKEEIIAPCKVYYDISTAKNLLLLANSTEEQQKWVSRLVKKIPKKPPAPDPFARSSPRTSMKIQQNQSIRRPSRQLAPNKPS
Sequence of UniProt P15555 (whole entry, looked up): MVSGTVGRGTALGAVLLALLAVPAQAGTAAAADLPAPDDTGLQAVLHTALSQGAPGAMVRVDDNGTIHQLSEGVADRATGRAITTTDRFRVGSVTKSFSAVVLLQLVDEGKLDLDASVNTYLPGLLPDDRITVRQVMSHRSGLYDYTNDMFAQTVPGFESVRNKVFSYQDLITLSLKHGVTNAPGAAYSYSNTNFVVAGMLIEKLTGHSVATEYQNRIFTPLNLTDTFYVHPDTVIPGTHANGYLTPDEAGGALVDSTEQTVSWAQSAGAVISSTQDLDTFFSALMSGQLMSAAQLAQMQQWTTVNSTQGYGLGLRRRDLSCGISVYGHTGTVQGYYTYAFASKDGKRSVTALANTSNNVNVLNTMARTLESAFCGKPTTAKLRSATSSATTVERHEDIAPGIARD
Sequence of UniProt P42680 (whole entry, looked up): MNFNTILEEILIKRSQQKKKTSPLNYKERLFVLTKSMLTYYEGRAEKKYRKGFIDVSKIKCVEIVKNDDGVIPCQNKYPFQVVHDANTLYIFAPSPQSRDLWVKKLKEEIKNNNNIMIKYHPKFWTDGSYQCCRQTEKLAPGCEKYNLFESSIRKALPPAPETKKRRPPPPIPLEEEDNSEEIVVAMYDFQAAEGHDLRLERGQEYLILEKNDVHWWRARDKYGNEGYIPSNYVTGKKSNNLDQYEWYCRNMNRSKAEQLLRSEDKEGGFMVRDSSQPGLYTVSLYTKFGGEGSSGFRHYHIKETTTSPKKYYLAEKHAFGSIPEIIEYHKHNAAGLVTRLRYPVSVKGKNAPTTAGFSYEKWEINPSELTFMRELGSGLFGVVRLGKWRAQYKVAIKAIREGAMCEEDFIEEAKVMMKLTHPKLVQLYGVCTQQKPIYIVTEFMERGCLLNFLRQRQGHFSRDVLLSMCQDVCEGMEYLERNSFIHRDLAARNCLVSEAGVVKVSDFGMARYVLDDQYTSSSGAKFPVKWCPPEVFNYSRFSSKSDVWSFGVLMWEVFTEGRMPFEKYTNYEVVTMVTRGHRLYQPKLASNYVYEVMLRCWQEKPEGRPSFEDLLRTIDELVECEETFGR

SMILES | target | test | system | setting | scale | inhibition
CC(=O)Nc1ccc(F)cc1-c1ccncc1 | Uridine nucleoside ribohydrolase (Trichomonas vaginalis, UniProt A2FTT0) | enzyme activity, jump-dilution 19F NMR | – | 200 µM, 10-fold dilution | – | 54%
CCCCCCCCCCN1C(=O)/C(=N\NC(N)=S)c2cc(C)ccc21 | mrcB | enzyme activity, inhibitor, HPLC | – | 50 µM | – | 40%
CC(=O)NCC(=O)N[C@@H](CC(=O)O)C(=O)N[C@@H](Cc1ccc(O)cc1)C(=O)N[C@@H](CO)C(=O)N[C@@H](Cc1c[nH]cn1)C(=O)N[C@H]1CSSC[C@@H](C(=O)N[C@H](C(=O)N[C@@H](Cc2ccc(O)cc2)C(=O)N2CCC[C@H]2C(=O)N[C@@H](CC(=O)O)C(=O)N2CCC[C@H]2C(=O)N[C@@H](CCC(=O)O)C(=O)NCC(=O)NCC(=O)NCC(N)=O)[C@@H](C)O)NC(=O)[C@H](CCCCN)NC(=O)[C@H](Cc2c[nH]c3ccccc23)NC(=O)[C@H](Cc2c[nH]c3ccccc23)NC(=O)[C@@H]2CCCN2C(=O)[C@H](Cc2ccc(O)cc2)NC(=O)[C@H](Cc2ccc(O)cc2)NC(=O)[C@H](CCCNC(=N)N)NC(=O)[C@H](CC(C)C)NC(=O)[C@@H]2CCCN2C(=O)[C@H](CO)NC1=O | ACE | enzyme activity, inhibitor, fluorescence | – | 30 µM | – | 14%
O=[N+]([O-])c1ccc(S[C@@H]2O[C@H](CO)[C@H](O)[C@H](O)[C@H]2O)cc1 | Adhesin FmlH lectin domain | binding to desialylated mucin, ELISA competition | UPEC UTI89 | 100 µM | – | 72%
N#C/C(=C\c1ccc(O)c(O)c1)C(=O)c1ccc(O)c(O)c1 | Genome polyprotein, NS3 helicase domain (Hepatitis C virus genotype 1b, UniProt Q9WMX2) | DNA binding, fluorescence polarization | – | 100 µM, added: Cy5-dT15 DNA | – | > 60%
CC1(C)SC(C(CCc2ccccc2)B(O)O)N[C@H]1C(=O)O (stereo partly shown) | D-alanyl-D-alanine carboxypeptidase (Streptomyces sp., UniProt P15555) | enzyme activity, inhibitor | – | concentration not given | – | no inhibition
Nc1ccccc1NC(=O)c1ccc(Nc2nccc(-c3cn(C4CCCCC4)nn3)n2)cc1 | CDK6 with cyclin D3 | enzyme activity, inhibitor, TR-FRET | – | 5 µM | – | -0.89%
COC(=O)C1=CNC=C(C(=O)OC)C1c1ccc(F)c(C(F)(F)F)c1 | L-type calcium channel dihydropyridine site (rat) | binding | rat cerebral cortex | 3 µM, added: [3H]nitrendipine | – | ~45%
Cc1ccccc1O[C@@H]1O[C@H](CO)[C@H](O)[C@H](O)[C@H]1O | Adhesin FmlH lectin domain | binding to desialylated mucin, ELISA competition | UPEC UTI89 | 100 µM | – | 87%
CC(C)(C)CCN1C[C@@H]2[C@@H](CNC(=O)c3cc(Cl)cc(Cl)c3)[C@@H]2C1.Cl | Voltage-dependent L-type calcium channel subunit alpha-1F (Homo sapiens, UniProt O60840, M1129A) | calcium current, whole-cell patch clamp | HEK-293T cells | 10 µM | relative to: wild type | no effect
O=C(CCCCCCOc1ccc(Nc2ncc(F)c(-c3cn(C4CCCCC4)nn3)n2)cc1)NO | CDK6 with cyclin D3 | enzyme activity, inhibitor, TR-FRET | – | 50 nM | – | 2.86%
Cc1ccc(O[C@@H]2O[C@H](CO)[C@H](O)[C@H](O)[C@H]2O)cc1 | Adhesin FmlH lectin domain | binding to desialylated mucin, ELISA competition | UPEC UTI89 | 100 µM | – | 86%
O=C(CCCCCCN1CCN(c2ccc(Nc3ncc(F)c(-c4cn(C5CCCC5)nn4)n3)cc2)CC1)NO | CDK6 with cyclin D3 | enzyme activity, inhibitor, TR-FRET | – | 5 µM | – | 70.1%
CCCCc1ccc(N2C(=O)/C(=N\NC(=N)N)c3ccccc32)cc1 | mrcB | enzyme activity, inhibitor, HPLC | – | 50 µM | – | 17%
C#CCSc1nc(Sc2nnnn2-c2ccccc2)c2nnn(Cc3ccccc3Cl)c2n1 | CDK6 with cyclin D3 | enzyme activity, inhibitor | – | 10 µM | – | < 15%
CC(=O)OCCc1ccc(O)c(O)c1 | alpha-glucosidase Saccharomyces cerevisiae | – | – | 1000 µM, added: sucrose | – | < 10%
CC(C)c1ccc(C(=O)Nc2ccc(CN)cc2)c(O)c1 | Suppressor of tumorigenicity 14 protein (ST14, Homo sapiens, UniProt Q9Y5Y6) | enzyme activity, inhibitor | – | 10 µM | – | 21.2%

SMILES | target | test | system | setting | scale | inhibition
C[C@@H](N)C1CCN(S(=O)(=O)c2cccc3cnccc23)CC1 | Rho-associated protein kinase 2 (ROCK2, Homo sapiens, UniProt O75116) | cell-free assay, competition with immobilised ligand | – | 10 µM | – | > 95%
COc1ccc(C(=O)N(O)Cc2ccccc2)cc1OC | Carotenoid cleavage dioxygenase 7, chloroplastic (CCD7, Arabidopsis thaliana, UniProt Q7XJM2) | β-carotene cleavage | Escherichia coli expressing CCD7 | 100 µM, 16 h | – | inactive
CN(C1COC1)C(C)(C)/C=C(\C#N)C(=O)N1CCC[C@H]1Cn1nc(-c2ccc(Oc3ccccc3)cc2F)c2c(N)ncnc21 | Tyrosine-protein kinase Tec (TEC, Homo sapiens, UniProt P42680) | – | – | 1 µM, mean | – | > 90%
CC(C)C[C@H](NC(=O)[C@@H](NC(=O)[C@H](CCC(N)=O)NC(=O)CNC(=O)[C@H](CO)NC(=O)[C@H](Cc1ccccc1)NC(=O)[C@@H](N)CC(C)C)C(C)C)C(=O)O | ACE | enzyme activity, inhibitor, HPLC | – | 1330 µg/mL | – | 71.4%
OC[C@H]1O[C@@H](Oc2ccc3ccccc3c2)[C@H](O)[C@@H](O)[C@H]1O | Adhesin FmlH lectin domain | binding to desialylated mucin, ELISA competition | UPEC UTI89 | 100 µM | – | 79%
CCCCCCCCCCCCCCN1C(=O)/C(=N\NC(=N)N)c2cc(C)ccc21 | mrcB | enzyme activity, inhibitor, HPLC | – | 50 µM | – | 100%
COCC12C(=O)NC3C4(C(OC)CC1O)C1CC5(O)C(OC)C(O)C(OC(C)=O)(C1C5OC(=O)c1ccccc1)C3(O)C(OC)C24 (stereo not shown) | MAP kinase-activated protein kinase 3 (MAPKAPK3, Homo sapiens, UniProt Q16644) | enzyme activity | – | 25 µM | – | no inhibition
COC(=O)c1cccc(-c2ccccc2O[C@@H]2O[C@H](CO)[C@H](O)[C@H](O)[C@H]2O)c1 | Adhesin FmlH lectin domain | binding to desialylated mucin, ELISA competition | UPEC UTI89 | 100 µM | – | 87%
CC(C)Cn1cc(-c2ccnc(Nc3ccc(OCCCCCCC(=O)NO)cc3)n2)nn1 | CDK6 with cyclin D3 | enzyme activity, inhibitor, TR-FRET | – | 50 nM | – | 8.65%
CC(C)=CCN=C(N)NCCC[C@@H](NC(=O)CCCc1ccc(O)cc1)C(=O)N[C@@H](Cc1ccccc1)C(O)CC(=O)N[C@@H](Cc1ccc(O)cc1)C(=O)O (stereo in doubt) | elastase | enzyme activity | – | up to 100 µM | – | no inhibition
O=C(Nc1cccnc1)c1ccccc1OCc1ccccc1 | Phosphatidylcholine:ceramide cholinephosphotransferase 1 (Homo sapiens, UniProt Q86VZ5) | enzyme activity, inhibitor | – | 100 µM | – | 35%
OC[C@H]1O[C@@H](Oc2ccccc2Cl)[C@H](O)[C@@H](O)[C@H]1O | Adhesin FmlH lectin domain | binding to desialylated mucin, ELISA competition | UPEC UTI89 | 100 µM | – | 90%
CC(C)C[C@H](NC(=O)[C@H](CCCNC(=N)N)NC(=O)CNC(=O)[C@H](CCC(=O)O)NC(=O)[C@@H]1CCCN1C(=O)[C@H](Cc1c[nH]cn1)NC(=O)[C@@H](NC(=O)[C@@H](N)C(C)C)C(C)C)C(=O)O | ACE | enzyme activity, inhibitor, HPLC | – | 1330 µg/mL | – | 53.3%
CN1CCN(Cc2ccc(-c3ccc(CO[C@H]4CCC[C@@H]4NC(=O)c4cc(-c5cnn(C)c5)cnc4N)cc3)cc2)CC1 | Serine/threonine-protein kinase Chk2 (CHEK2, Homo sapiens, UniProt O96017) | enzyme activity, inhibitor | – | 0.1 µM | – | 55.2%
CCCCc1ccc(N2C(=O)/C(=N\NC(=N)N)c3cc(F)ccc32)cc1 | mrcB | enzyme activity, inhibitor, HPLC | – | 50 µM | – | 14%
Nc1ccccc1NC(=O)c1ccc(Nc2nccc(-c3cn(C4CCCC4)nn3)n2)cc1 | CDK6 with cyclin D3 | enzyme activity, inhibitor, TR-FRET | – | 50 nM | – | 6.22%
COc1cc(C(=O)NC2CCC(N3CCN(CC4CCC5(CCCC5)C4)CC3)CC2)c(F)cc1Nc1ncc2c(n1)N(C1CCCC1(F)F)CC(F)(F)C(=O)N2C (stereo not shown) | Cyclin-dependent kinase 6 (CDK6, Homo sapiens, UniProt Q00534) | cell-free assay, TR-FRET | – | 10 µM | – | 4.18%

For quick reference, copied from above:
SMILES | target | test | system | setting | scale | inhibition
CC(C)(C)CCN1C[C@@H]2[C@@H](CNC(=O)c3cc(Cl)cc(Cl)c3)[C@@H]2C1.Cl | Voltage-dependent L-type calcium channel subunit alpha-1F (Homo sapiens, UniProt O60840, M1129A) | calcium current, whole-cell patch clamp | HEK-293T cells | 10 µM | relative to: wild type | no effect
O=C(CCCCCCOc1ccc(Nc2ncc(F)c(-c3cn(C4CCCCC4)nn3)n2)cc1)NO | CDK6 with cyclin D3 | enzyme activity, inhibitor, TR-FRET | – | 50 nM | – | 2.86%
